Published values from different studies.
Lines come from different studies, so protocols differ.
Organism: Pseudomonas aeruginosa

| Structure (SMILES) | assay | test system | conditions | MIC |
| --- | --- | --- | --- | --- |
| CC[C@@H](C)[C@@H](NC(=O)[C@@H](CCCCN)NC(=O)[C@H]1CCCN1C(=O)[C@H](NC(=O)[C@@H](CC(C)C)NC(=O)[C@@H](CCCCN)NC(=O)[C@@H](CC(C)C)NC(=O)[C@H](NC(=O)[C@@H](CO)NC(=O)CNC(=O)[C@@H](Cc1ccccc1)NC(=O)[C@H](N)Cc1ccccc1)C(C)C)[C@H](C)CC)C(=O)N[C@H](CC(C)C)C(N)=O | broth microdilution | – | – | > 100 µM |
| CC1C(=NNC(=O)c2ccncc2)C(C)C(c2ccc(Br)cc2)OC1c1ccc(Br)cc1 (stereo not shown) | microbial growth, broth dilution | MTCC741 | 24 h | 6.3 µg/mL |
| C[C@@H](N)[C@H](O)CCCCCCCC(=O)CCCCCCCCCCCCCC[C@@H](O[C@@H]1O[C@H](CO)[C@H](O)[C@H](O)[C@H]1O)[C@H](N)CO | microbial growth, resazurin | ATCC27853 | 6 h | 12.2 µM |
| CC(C)[C@@H]1NC(=O)[C@@H]2CCCN2C(=O)[C@@H](C)NC(=O)[C@H](CO)NC(=O)[C@H](C)NC(=O)[C@H](C(C)(C)C)NC(=O)[C@H](CCO)NC(=O)[C@H](Cc2c[nH]c3ccccc23)NC(=O)[C@H](CCO)NC(=O)[C@@H](CCN)NC(=O)[C@H](CCC(N)=O)NC(=O)[C@H](CCN)NC(=O)[C@H](Cc2ccc(O)cc2)NC(=O)[C@H]([C@@H](C)O)NC1=O | broth microdilution | NDM-1, CAMHB with polysorbate-80 | 16 h | > 64 µg/mL |
| CC(C)CCCCC(=O)N[C@@H](CCN)C(=O)N[C@H](C(=O)N[C@H](CCN)C(=O)N[C@H]1CCNC(=O)[C@H]([C@@H](C)O)NC(=O)[C@H](CCN)NC(=O)[C@H](CCN)NC(=O)[C@H]([C@@H](C)O)NC(=O)[C@@H](CC(C)C)NC(=O)[C@H](CCN)NC1=O)[C@@H](C)O | broth microdilution | FADDI-PA070, polymyxin resistant, CAMHB | 18 h, 37 °C | > 32 µg/mL |
| N=C(N)NCCC[C@@H]1NC(=O)[C@H](CCCNC(=N)N)NC(=O)[C@H](CCCNC(=N)N)NC(=O)[C@H](CCCNC(=N)N)NC(=O)[C@H](Cc2c[nH]c3ccccc23)NC(=O)[C@H](CCCNC(=N)N)NC(=O)[C@H](CCCNC(=N)N)NC(=O)[C@@H](N)CCCn2cc(nn2)C[C@@H](C(N)=O)NC1=O | – | ATCC 27853 | 24 h, 37 °C | 250 µg/mL |
| CC(C)C[C@H](NC(=O)[C@H](CCCCNC(=O)[C@H](CCCCN)NC(=O)[C@H](CC(C)C)NC(=O)[C@H](CCCCNC(=O)[C@H](CCCCN)NC(=O)[C@H](CC(C)C)NC(=O)[C@H](CCCCNC(=O)[C@H](CCCCN)NC(=O)[C@@H](N)CC(C)C)NC(=O)[C@H](CCCCN)NC(=O)[C@@H](N)CC(C)C)NC(=O)[C@H](CCCCN)NC(=O)[C@H](CC(C)C)NC(=O)[C@H](CCCCNC(=O)[C@H](CCCCN)NC(=O)[C@@H](N)CC(C)C)NC(=O)[C@H](CCCCN)NC(=O)[C@@H](N)CC(C)C)NC(=O)[C@H](CCCCN)NC(=O)[C@H](CC(C)C)NC(=O)[C@H](CCCCNC(=O)[C@H](CCCCN)NC(=O)[C@H](CC(C)C)NC(=O)[C@H](CCCCNC(=O)[C@H](CCCCN)NC(=O)[C@@H](N)CC(C)C)NC(=O)[C@H](CCCCN)NC(=O)[C@@H](N)CC(C)C)NC(=O)[C@H](CCCCN)NC(=O)[C@H](CC(C)C)NC(=O)[C@H](CCCCNC(=O)[C@H](CCCCN)NC(=O)[C@@H](N)CC(C)C)NC(=O)[C@H](CCCCN)NC(=O)[C@@H](N)CC(C)C)C(=O)N[C@@H](CCCCN)C(N)=O | – | PAO1, LB medium | – | 2 µM |
| CC(C)C[C@H](NC(=O)[C@H](CCCCN)NC(=O)[C@H](CCCCNC(=O)[C@H](CC(C)C)NC(=O)[C@H](CCCCN)NC(=O)[C@H](CCCCNC(=O)[C@H](CC(C)C)NC(=O)[C@H](CCCCN)NC(=O)[C@H](CCCCNC(=O)[C@H](CC(C)C)NC(=O)[C@@H](N)CCCCN)NC(=O)[C@H](CC(C)C)NC(=O)[C@@H](N)CCCCN)NC(=O)[C@H](CC(C)C)NC(=O)[C@H](CCCCN)NC(=O)[C@H](CCCCNC(=O)[C@H](CC(C)C)NC(=O)[C@@H](N)CCCCN)NC(=O)[C@H](CC(C)C)NC(=O)[C@@H](N)CCCCN)NC(=O)[C@H](CC(C)C)NC(=O)[C@H](CCCCN)NC(=O)[C@H](CCCCNC(=O)[C@H](CC(C)C)NC(=O)[C@H](CCCCN)NC(=O)[C@H](CCCCNC(=O)[C@H](CC(C)C)NC(=O)[C@@H](N)CCCCN)NC(=O)[C@H](CC(C)C)NC(=O)[C@@H](N)CCCCN)NC(=O)[C@H](CC(C)C)NC(=O)[C@H](CCCCN)NC(=O)[C@H](CCCCNC(=O)[C@H](CC(C)C)NC(=O)[C@@H](N)CCCCN)NC(=O)[C@H](CC(C)C)NC(=O)[C@@H](N)CCCCN)C(N)=O | broth microdilution | PAO1 | 37 °C | 2 µg/mL |
| CC(C)C[C@@H]1NC(=O)[C@H](CC(C)C)NC(=O)[C@H](CCCCN)NC(=O)CSC[C@@H](C(N)=O)NC(=O)[C@H](CC(C)C)NC(=O)[C@H](CCCCN)NC(=O)[C@H](CCCCN)NC(=O)[C@@H]2CSCC(=O)N[C@@H](CCCCN)C(=O)N[C@@H](CC(C)C)C(=O)N[C@@H](CC(C)C)C(=O)N[C@@H](CCCCNC1=O)C(=O)N[C@@H](CCCCN)C(=O)N[C@@H](CC(C)C)C(=O)N2 | – | PAO1 | 18 h | > 256 µg/mL |
| CC[C@H](C)[C@H](NC(=O)[C@H](CC(C)C)NC(=O)[C@H](CO)NC(=O)[C@H](CC(C)C)NC(=O)[C@@H](N)CCSC)C(=O)N[C@@H](Cc1ccccc1)C(=O)N[C@@H](CC(C)C)C(=O)N[C@@H](Cc1c[nH]cn1)C(=O)N[C@@H](CCCNC(=N)N)C(=O)N[C@@H](CC(C)C)C(=O)N[C@@H](CCCCN)C(=O)N[C@@H](CO)C(=O)N[C@@H](CCSC)C(=O)N[C@@H](CCCNC(=N)N)C(=O)N[C@@H](CCCCN)C(=O)N[C@@H](CCCNC(=N)N)C(=O)N[C@@H](CC(C)C)C(=O)N[C@@H](CC(=O)O)C(=O)N[C@@H](CCCNC(=N)N)C(=O)N[C@@H](CCCCN)C(=O)N[C@@H](CC(C)C)C(=O)N[C@@H](CCCNC(=N)N)C(=O)N[C@@H](CC(C)C)C(=O)N[C@@H](Cc1c[nH]c2ccccc12)C(=O)N[C@@H](Cc1c[nH]cn1)C(=O)N[C@@H](CCCNC(=N)N)C(=O)N[C@@H](CCCCN)C(=O)N[C@@H](CC(N)=O)C(=O)N[C@@H](Cc1ccc(O)cc1)C(=O)N1CCC[C@H]1C(=O)O | – | ATCC 27853 | added: 1 mM CaCl2 | 40 µg/mL |

For quick reference, copied from above:
| Structure (SMILES) | assay | test system | conditions | MIC |
| --- | --- | --- | --- | --- |
| CC(C)[C@@H]1NC(=O)[C@@H]2CCCN2C(=O)[C@@H](C)NC(=O)[C@H](CO)NC(=O)[C@H](C)NC(=O)[C@H](C(C)(C)C)NC(=O)[C@H](CCO)NC(=O)[C@H](Cc2c[nH]c3ccccc23)NC(=O)[C@H](CCO)NC(=O)[C@@H](CCN)NC(=O)[C@H](CCC(N)=O)NC(=O)[C@H](CCN)NC(=O)[C@H](Cc2ccc(O)cc2)NC(=O)[C@H]([C@@H](C)O)NC1=O | broth microdilution | NDM-1, CAMHB with polysorbate-80 | 16 h | > 64 µg/mL |
